# Assay results from different studies.
# Each numbered part is a random draw from the data of one study; scales do not carry over between parts.
# UniProt Q00526, sequence (whole entry, looked up): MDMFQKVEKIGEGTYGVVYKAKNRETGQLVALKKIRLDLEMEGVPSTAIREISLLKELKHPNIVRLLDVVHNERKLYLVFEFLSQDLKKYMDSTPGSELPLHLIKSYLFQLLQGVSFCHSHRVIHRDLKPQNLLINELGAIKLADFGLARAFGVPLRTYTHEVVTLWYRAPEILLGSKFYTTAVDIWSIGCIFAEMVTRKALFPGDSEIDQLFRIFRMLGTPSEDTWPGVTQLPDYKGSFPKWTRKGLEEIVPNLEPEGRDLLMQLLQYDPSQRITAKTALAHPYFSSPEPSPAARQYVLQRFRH
# UniProt Q9UM73, sequence (whole entry, looked up): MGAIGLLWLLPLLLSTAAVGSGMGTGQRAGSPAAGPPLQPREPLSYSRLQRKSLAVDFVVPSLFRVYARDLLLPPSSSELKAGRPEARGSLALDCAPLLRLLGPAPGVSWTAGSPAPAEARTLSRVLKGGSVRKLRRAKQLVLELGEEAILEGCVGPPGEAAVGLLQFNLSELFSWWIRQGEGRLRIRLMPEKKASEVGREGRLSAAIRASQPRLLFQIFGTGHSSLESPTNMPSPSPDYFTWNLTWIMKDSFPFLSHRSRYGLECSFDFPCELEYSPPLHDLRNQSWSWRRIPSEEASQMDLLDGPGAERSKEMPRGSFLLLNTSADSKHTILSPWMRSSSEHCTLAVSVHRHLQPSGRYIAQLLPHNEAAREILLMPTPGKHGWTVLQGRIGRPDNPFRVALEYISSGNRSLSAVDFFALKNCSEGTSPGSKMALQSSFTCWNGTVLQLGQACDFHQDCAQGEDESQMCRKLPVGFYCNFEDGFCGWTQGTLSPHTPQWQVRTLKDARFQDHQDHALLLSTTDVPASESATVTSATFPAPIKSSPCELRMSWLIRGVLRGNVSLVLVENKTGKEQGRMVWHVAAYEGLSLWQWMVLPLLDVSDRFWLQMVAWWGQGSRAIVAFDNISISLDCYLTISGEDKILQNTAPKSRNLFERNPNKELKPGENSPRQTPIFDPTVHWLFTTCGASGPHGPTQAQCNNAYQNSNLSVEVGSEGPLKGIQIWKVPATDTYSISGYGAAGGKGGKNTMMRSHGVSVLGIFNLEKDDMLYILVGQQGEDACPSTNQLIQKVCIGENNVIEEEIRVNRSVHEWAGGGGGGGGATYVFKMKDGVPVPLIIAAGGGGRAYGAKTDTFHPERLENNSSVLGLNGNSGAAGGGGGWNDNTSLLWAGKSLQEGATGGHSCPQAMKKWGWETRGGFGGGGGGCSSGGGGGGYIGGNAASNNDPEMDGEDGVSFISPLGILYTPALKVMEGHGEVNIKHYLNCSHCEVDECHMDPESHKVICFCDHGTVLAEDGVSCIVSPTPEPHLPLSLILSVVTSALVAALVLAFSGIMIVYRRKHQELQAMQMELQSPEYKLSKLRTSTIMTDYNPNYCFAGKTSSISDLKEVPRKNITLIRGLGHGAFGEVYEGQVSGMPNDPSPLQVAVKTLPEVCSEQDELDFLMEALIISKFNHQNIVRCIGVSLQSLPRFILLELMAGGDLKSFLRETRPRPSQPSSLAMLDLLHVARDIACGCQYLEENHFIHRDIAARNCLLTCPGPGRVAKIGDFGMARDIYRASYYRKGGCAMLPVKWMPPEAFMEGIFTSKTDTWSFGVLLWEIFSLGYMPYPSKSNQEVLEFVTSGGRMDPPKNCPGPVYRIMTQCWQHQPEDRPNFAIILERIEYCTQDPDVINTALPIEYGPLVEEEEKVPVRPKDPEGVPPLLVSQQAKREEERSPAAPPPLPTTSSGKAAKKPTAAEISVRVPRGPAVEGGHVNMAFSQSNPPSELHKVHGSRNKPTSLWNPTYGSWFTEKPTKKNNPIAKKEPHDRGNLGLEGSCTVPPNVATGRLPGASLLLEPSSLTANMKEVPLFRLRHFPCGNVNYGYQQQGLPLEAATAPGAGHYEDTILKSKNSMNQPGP
# UniProt Q9H2K8, sequence (whole entry, looked up): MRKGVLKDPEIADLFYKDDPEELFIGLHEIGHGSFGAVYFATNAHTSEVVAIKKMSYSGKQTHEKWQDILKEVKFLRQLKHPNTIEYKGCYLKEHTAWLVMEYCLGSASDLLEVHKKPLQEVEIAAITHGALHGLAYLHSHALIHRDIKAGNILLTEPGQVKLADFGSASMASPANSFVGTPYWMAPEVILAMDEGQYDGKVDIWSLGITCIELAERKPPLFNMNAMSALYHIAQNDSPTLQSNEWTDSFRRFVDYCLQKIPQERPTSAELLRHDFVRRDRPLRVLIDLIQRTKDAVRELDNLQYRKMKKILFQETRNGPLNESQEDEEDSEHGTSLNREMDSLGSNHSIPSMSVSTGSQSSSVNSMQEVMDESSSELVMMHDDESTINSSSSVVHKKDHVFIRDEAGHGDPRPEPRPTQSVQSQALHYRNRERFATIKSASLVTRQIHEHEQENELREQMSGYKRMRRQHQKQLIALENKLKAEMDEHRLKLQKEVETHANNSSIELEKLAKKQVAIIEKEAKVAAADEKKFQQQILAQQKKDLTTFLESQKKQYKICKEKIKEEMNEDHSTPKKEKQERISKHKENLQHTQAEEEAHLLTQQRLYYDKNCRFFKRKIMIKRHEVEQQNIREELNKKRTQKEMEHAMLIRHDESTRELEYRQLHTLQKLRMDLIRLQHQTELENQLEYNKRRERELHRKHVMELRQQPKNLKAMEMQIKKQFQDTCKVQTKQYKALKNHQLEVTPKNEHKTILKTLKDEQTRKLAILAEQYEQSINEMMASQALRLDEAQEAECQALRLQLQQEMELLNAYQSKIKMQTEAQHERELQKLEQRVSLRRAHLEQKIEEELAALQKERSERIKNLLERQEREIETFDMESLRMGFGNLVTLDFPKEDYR
# UniProt P27448, sequence (whole entry, looked up): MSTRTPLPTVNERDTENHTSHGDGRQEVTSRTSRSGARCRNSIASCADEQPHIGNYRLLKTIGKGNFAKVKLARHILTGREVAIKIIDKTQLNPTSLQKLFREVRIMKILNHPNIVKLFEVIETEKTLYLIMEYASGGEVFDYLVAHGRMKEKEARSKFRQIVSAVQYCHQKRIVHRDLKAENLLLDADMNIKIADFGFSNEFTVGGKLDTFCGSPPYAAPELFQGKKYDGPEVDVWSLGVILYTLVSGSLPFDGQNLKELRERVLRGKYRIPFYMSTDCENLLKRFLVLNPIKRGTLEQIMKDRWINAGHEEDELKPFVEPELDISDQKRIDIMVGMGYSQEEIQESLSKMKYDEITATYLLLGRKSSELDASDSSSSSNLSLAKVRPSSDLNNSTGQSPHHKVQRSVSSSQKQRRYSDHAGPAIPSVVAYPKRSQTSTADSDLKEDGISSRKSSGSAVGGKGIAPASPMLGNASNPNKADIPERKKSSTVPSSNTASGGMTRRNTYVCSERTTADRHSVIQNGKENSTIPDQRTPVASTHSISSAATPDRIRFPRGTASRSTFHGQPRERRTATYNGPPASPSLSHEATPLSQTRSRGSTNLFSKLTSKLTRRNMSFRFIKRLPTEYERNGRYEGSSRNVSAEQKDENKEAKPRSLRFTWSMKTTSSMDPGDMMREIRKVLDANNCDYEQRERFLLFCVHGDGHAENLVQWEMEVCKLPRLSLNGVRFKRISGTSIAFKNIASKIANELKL
# UniProt P53667, sequence (whole entry, looked up): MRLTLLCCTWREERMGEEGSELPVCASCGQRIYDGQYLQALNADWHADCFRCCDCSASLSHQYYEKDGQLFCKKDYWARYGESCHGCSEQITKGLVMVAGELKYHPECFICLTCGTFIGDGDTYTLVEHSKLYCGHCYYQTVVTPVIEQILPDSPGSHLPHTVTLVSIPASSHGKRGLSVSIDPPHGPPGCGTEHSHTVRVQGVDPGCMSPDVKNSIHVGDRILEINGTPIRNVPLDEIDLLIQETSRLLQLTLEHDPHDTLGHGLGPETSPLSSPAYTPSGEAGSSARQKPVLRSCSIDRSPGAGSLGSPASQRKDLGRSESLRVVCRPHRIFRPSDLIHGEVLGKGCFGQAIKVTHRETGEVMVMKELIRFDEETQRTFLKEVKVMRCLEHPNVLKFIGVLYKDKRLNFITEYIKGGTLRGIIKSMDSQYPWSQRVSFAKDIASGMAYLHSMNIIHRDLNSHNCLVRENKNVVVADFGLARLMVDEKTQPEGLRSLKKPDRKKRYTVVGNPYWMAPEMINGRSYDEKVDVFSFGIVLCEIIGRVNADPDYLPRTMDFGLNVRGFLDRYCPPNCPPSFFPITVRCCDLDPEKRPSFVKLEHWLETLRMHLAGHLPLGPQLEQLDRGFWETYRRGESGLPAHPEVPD
# UniProt Q9NRH2, sequence (whole entry, looked up): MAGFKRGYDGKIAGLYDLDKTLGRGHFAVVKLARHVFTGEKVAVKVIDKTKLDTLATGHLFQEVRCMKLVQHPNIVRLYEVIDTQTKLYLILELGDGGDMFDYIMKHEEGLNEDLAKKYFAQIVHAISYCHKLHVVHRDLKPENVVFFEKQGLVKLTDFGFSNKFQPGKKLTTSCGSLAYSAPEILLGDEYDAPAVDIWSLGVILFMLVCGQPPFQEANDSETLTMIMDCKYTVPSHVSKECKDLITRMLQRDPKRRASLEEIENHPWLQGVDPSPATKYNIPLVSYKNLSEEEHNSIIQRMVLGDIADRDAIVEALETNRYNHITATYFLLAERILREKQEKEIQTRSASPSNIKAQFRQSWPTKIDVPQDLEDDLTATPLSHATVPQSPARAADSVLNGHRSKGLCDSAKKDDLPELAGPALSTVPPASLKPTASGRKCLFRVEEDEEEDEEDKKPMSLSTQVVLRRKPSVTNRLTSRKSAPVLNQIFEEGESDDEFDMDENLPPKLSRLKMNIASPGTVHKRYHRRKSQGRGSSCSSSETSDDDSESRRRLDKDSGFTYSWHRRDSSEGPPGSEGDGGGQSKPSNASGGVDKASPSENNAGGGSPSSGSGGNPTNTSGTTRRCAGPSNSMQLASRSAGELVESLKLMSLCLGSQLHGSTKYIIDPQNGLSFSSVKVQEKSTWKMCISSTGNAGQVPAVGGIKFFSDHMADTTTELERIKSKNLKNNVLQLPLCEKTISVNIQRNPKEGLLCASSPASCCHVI

# Series 1 — mode: inhibitor; concentration: 1 µM
# Structure (SMILES): C=CC(=O)N1CCC[C@@H](n2nc(-c3ccc(Oc4ccccc4)cc3)c3c(N)ncnc32)C1
target,test,inhibition
"PNCK (Homo sapiens, UniProt Q6P2M8)",,15%
"CDK3 (Homo sapiens, UniProt Q00526)",enzyme activity,12%
"FLT3 (Homo sapiens, UniProt P36888, D835H)",,67%
"MYLK2 (Homo sapiens, UniProt Q9H1R3)",enzyme activity,0%
"INSRR (Homo sapiens, UniProt P14616)",enzyme activity,16%
"JAK3 (Homo sapiens, UniProt P52333)",,97%
"HIPK3 (Homo sapiens, UniProt Q9H422)",enzyme activity,10%
"ALK (Homo sapiens, UniProt Q9UM73)",,23%
"EPHA8 (Homo sapiens, UniProt P29322)",,30%

# Series 2 — SMILES: COc1ccc(-c2cnc3c(-c4ccsc4)cnn3c2)cc1; observed: enzyme activity; mode: inhibitor; concentration: 0.5 µM; baseline: control
target,remaining activity [%]
"TAOK3 (Homo sapiens, UniProt Q9H2K8)",96.9
"MATK (Homo sapiens, UniProt P42679)",99.4
"PASK (Homo sapiens, UniProt Q96RG2)",79.5
"FER (Homo sapiens, UniProt P16591)",81.5
"PKN1 (Homo sapiens, UniProt Q16512)",93.1
"STK25 (Homo sapiens, UniProt O00506)",102
"NLK (Homo sapiens, UniProt Q9UBE8)",74.5
"ALK (Homo sapiens, UniProt Q9UM73)",80.4
"NEK11 (Homo sapiens, UniProt Q8NG66)",93.3
"FYN (Homo sapiens, UniProt P06241)",86.3
"HIPK1 (Homo sapiens, UniProt Q86Z02)",99.8
"CDC42BPA (Homo sapiens, UniProt Q5VT25)",86.8
"ITK (Homo sapiens, UniProt Q08881)",95.2
"LIM domain kinase 1 (LIMK1, Homo sapiens, UniProt P53667)",71.2
"PRKX (Homo sapiens, UniProt P51817)",89.5
"FGR (Homo sapiens, UniProt P09769)",72.3
"MARK3 (Homo sapiens, UniProt P27448)",88.8
"Insulin receptor (INSR, Homo sapiens, UniProt P06213)",92.5
"AKT1 (Homo sapiens, UniProt P31749)",92.4
"FLT4 (Homo sapiens, UniProt P35916)",94.1
"Cyclin-dependent kinase 3, with cyclin E (CDK3, Homo sapiens, UniProt Q00526)",84.9
"SRC (Homo sapiens, UniProt P12931)",91.7

# Series 3 — observed: cell-free assay; method: competition with immobilised ligand; concentration: 1 µM
# SMILES: CCS(=O)(=O)c1cc2cc(C[C@](O)(CC(C)(C)c3ccc(F)cc3C(N)=O)C(F)(F)F)[nH]c2cn1
target,remaining binding [%]
"FGFR1 (Homo sapiens, UniProt P11362)",94
"SNRK (Homo sapiens, UniProt Q9NRH2)",100
"ULK3 (Homo sapiens, UniProt Q6PHR2)",100
"PTK6 (Homo sapiens, UniProt Q13882)",100
"AKT3 (Homo sapiens, UniProt Q9Y243)",100
"Non-receptor tyrosine-protein kinase TYK2, JH1 (TYK2, Homo sapiens, UniProt P29597)",100
"FLT3 (Homo sapiens, UniProt P36888, D835V)",95
"EGFR (Homo sapiens, UniProt P00533, del746-750)",89
"EGFR (Homo sapiens, UniProt P00533, L861Q)",100
"DDR2 (Homo sapiens, UniProt Q16832)",88
"Tyrosine-protein kinase ABL1, non-phosphorylated (ABL1, Homo sapiens, UniProt P00519, T315I)",100
"Ribosomal protein S6 kinase alpha-3, N-terminal kinase domain (RPS6KA3, Homo sapiens, UniProt P51812)",100
"TAOK3 (Homo sapiens, UniProt Q9H2K8)",86
"CDK18 (Homo sapiens, UniProt Q07002)",100
"EGFR (Homo sapiens, UniProt P00533, A750P/del747-749)",93

# Further values, each from its own experiment
Structure (SMILES),test,system,setting,measurement,value
CC(C)n1cnc(-c2ccc(F)cc2)c1-c1ncc(C(=O)Nc2ccc(N3CCN(C)CC3)cc2)[nH]1,phase 2a clinical trial,patients with idiopathic pulmonary fibrosis,30 mg once daily,patients with allergic conjunctivitis TEAE,0%

# A few entries again (series 2):
target,remaining activity [%]
"STK25 (Homo sapiens, UniProt O00506)",102
"MARK3 (Homo sapiens, UniProt P27448)",88.8
"CDC42BPA (Homo sapiens, UniProt Q5VT25)",86.8
"FGR (Homo sapiens, UniProt P09769)",72.3
"SRC (Homo sapiens, UniProt P12931)",91.7
